Measurements of several laboratories.
Compare with care: the assays were run in different laboratories. “And” joins repeats or separate records; there may be more than shown.

With `Cc1ccc(-c2ccc(-c3cc4sccc4o3)cn2)nc1` the absorption maximum was 380 nm (acetonitrile; zinc complex).
`CC1=CC(C)=[N+]2C1=C(CCCC(=O)NCC1CCC(C(=O)NC(Cc3ccc4ccccc4c3)C(=O)NCCCCC(NC(=O)NC(CCC(=O)O)C(=O)O)C(=O)O)CC1)c1c(C)cc(C)n1[B-]2(F)F` (stereo not shown) gave an absorption maximum of 496 nm (acetonitrile/water).
`CCCCN1C(=O)c2cccc3c(NCCCN4CCOCC4)ccc(c23)C1=O` gave an absorption maximum of 446 nm (aqueous medium; pH 6).
For `COCCOCCOCCOc1ccc(/C=C/c2c(I)c(C)c3n2[B-](F)(F)[N+]2=C(C)C(I)=C(C)C2=C3c2cc(OC)cc(OC)c2)cc1`, the absorption maximum was 601 nm (DMSO).
`CC1=CC(C)=[N+]2C1=C(c1ccc(C[P+](c3ccccc3)(c3ccccc3)C3CCCCC3)cc1)c1c(C)cc(C)n1[B-]2(F)F` has an absorption maximum of 497 nm (PBS; 10 µM, pH 7.4, 298 K).
`CCn1cc(/C=C/c2sc3ccccc3[n+]2CC)c2ccccc21` has an absorption maximum of 464 nm (PBS; 10 µM).
For `CCCCN1C(=O)c2cccc3c(NCCCCN4CCOCC4)ccc(c23)C1=O`, the absorption maximum was 449 nm (aqueous medium; pH 6).
With `COc1cc(OC)cc(C2=C3C(C)=C(I)C(/C=C/c4c[nH]c5ccc([N+](=O)[O-])cc45)=[N+]3[B-](F)(F)n3c(/C=C/c4c[nH]c5ccc([N+](=O)[O-])cc45)c(I)c(C)c32)c1` the absorption maximum was 690 nm (dichloromethane).
`COc1cc(/C=C2\SC(=S)NC2=O)cc(OC)c1OC` gave an absorption maximum of 393 nm (PBS; free ligand).
For `CCn1cc(/C=C/c2ccc3ccccc3[n+]2CC)c2ccccc21`, the absorption maximum was 488 nm (DMSO; 10 µM).
The absorption maximum of `NCCC(=O)N1Cc2ccccc2-c2c(nnn2-c2nc(N)c3ncn(C4OC(CO)C(O)C4O)c3n2)-c2ccccc21` (mixture of isomers) is reported as 263 nm (methanol).
`CC1=CC(C)=[N+]2C1=C(c1ccc(C[P+](C3CCCCC3)(C3CCCCC3)C3CCCCC3)cc1)c1c(C)cc(C)n1[B-]2(F)F` gave an absorption maximum of 497 nm (PBS; 10 µM, pH 7.4, 298 K).
`COC(=O)c1ccccc1-c1c2ccc(=O)cc-2oc2c1ccc1cccc(N)c12` has an absorption maximum of 509 nm and 549 nm (aqueous NaOH 10% DMSO; pH 12.1, conjugate base).
`CC1=CC(C)=[N+]2C1=C(CCCC(=O)NCCCCCC(=O)NCCCC[C@H](NC(=O)N[C@@H](CCC(=O)O)C(=O)O)C(=O)O)c1c(C)cc(C)n1[B-]2(F)F` has an absorption maximum of 496 nm (acetonitrile/water).
For `COc1ccc(/C=C/c2ccc(-c3ccc(C)cn3)nc2)cc1`, the absorption maximum was 344 nm (aqueous HEPES buffer; pH 7.4, zinc-free ligand).
`CCCCN1C(=O)c2cccc3c(NCCCCCCCCCCN4CCOCC4)ccc(c23)C1=O` has an absorption maximum of 452 nm (aqueous medium; pH 6).
For `COc1cc(OC)cc(C2=C3C(C)=C(I)C(C)=[N+]3[B-](F)(F)n3c(/C=C/c4c[nH]c5ccccc45)c(I)c(C)c32)c1`, the absorption maximum was 627 nm (THF).
`COc1ccc2cc(-c3ccc(-c4ccc(C)cn4)nc3)oc2c1` has an absorption maximum of 381 nm (acetonitrile; zinc complex).
`COCCOCCOCCOc1ccc(/C=C/C2=[N+]3C(=C(c4cc(OC)cc(OC)c4)c4c(C)c(I)c(/C=C/c5ccc(OCCOCCOCCOC)cc5)n4[B-]3(F)F)C(C)=C2I)cc1` has an absorption maximum of 664 nm (THF).
`COc1cccc(Cc2cc(CCC(=O)NCCNc3cccc4c(S(=O)(=O)O)cccc34)nn(CC(=O)Nc3ccc(Br)cc3)c2=O)c1` has an absorption maximum of roughly 340 nm.
For `COc1cc(OC)cc(C2=C3C(C)=C(I)C(C)=[N+]3[B-](F)(F)n3c(/C=C/c4c[nH]c5ccc([N+](=O)[O-])cc45)c(I)c(C)c32)c1`, the absorption maximum was 612 nm (THF).
`COC(=O)c1ccccc1-c1c2ccc(=[N+](C)C)cc-2oc2c1ccc1cccc(N)c12` gave an absorption maximum of 598 nm (phosphate buffer; 10 to 15 µM, pH 7.4, 10% DMSO).
The absorption maximum of `COc1cc(OC)cc(C2=C3C(C)=C(I)C(C)=[N+]3[B-](F)(F)n3c(/C=C/c4cccs4)c(I)c(C)c32)c1` is reported as 598 nm (THF).
For `CCN(CC)c1ccc(-c2csc3c(C(=O)OC)cc(=O)n(C)c23)cc1`, the absorption maximum was 283 nm (dichloromethane; 10 µM).
With `CCCCN1C(=O)c2cccc3c(NCCCCCCN4CCOCC4)ccc(c23)C1=O` the absorption maximum was 426 nm (toluene).
`CC1=CC(C)=[N+]2C1=C(CCCC(=O)NCCCCCC(=O)NCCCCCC(=O)NCCCC[C@H](NC(=O)N[C@@H](CCC(=O)O)C(=O)O)C(=O)O)c1c(C)cc(C)n1[B-]2(F)F` has an absorption maximum of 496 nm (acetonitrile/water).
With `COC(=O)c1ccccc1-c1c2ccc(=O)cc-2oc2c1ccc1cccc(OC)c12` the absorption maximum was 530 nm (phosphate buffer; 10 to 15 µM, pH 7.4, 10% DMSO).
`COc1cc(OC)cc(C2=C3C(C)=C(I)C(/C=C/c4cccs4)=[N+]3[B-](F)(F)n3c(/C=C/c4cccs4)c(I)c(C)c32)c1` gave an absorption maximum of 675 nm (DMSO).
With `COCCOCCOc1ccc([P+](Cc2ccc(C3=C4C(C)=CC(C)=[N+]4[B-](F)(F)n4c(C)cc(C)c43)cc2)(c2ccc(OCCOCCOC)cc2)c2ccc(OCCOCCOC)cc2)cc1` the absorption maximum was 497 nm (PBS; 10 µM, pH 7.4, 298 K).
For `CCCCN1C(=O)c2cccc3c(NCCCCCN4CCOCC4)ccc(c23)C1=O`, the absorption maximum was 452 nm (aqueous medium; pH 6).
For `COc1cc(OC)cc(C2=C3C(C)=C(I)C(C)=[N+]3[B-](F)(F)n3c(C)c(I)c(C)c32)c1`, the absorption maximum was 535 nm (dichloromethane).

Repeated from above:
`COCCOCCOCCOc1ccc(/C=C/C2=[N+]3C(=C(c4cc(OC)cc(OC)c4)c4c(C)c(I)c(/C=C/c5ccc(OCCOCCOCCOC)cc5)n4[B-]3(F)F)C(C)=C2I)cc1` has an absorption maximum of 664 nm (THF).
`CC1=CC(C)=[N+]2C1=C(c1ccc(C[P+](C3CCCCC3)(C3CCCCC3)C3CCCCC3)cc1)c1c(C)cc(C)n1[B-]2(F)F` gave an absorption maximum of 497 nm (PBS; 10 µM, pH 7.4, 298 K).
`COC(=O)c1ccccc1-c1c2ccc(=[N+](C)C)cc-2oc2c1ccc1cccc(N)c12` gave an absorption maximum of 598 nm (phosphate buffer; 10 to 15 µM, pH 7.4, 10% DMSO).
